# Measurements collected from several papers.
# Each numbered part is a random draw from the data of one study; scales do not carry over between parts.

# Sample 1 — technique: protein-binding microarray; molecule type: double-stranded DNA, one strand shown; medium: in vitro; tested at: not given; direction: higher = stronger binding
# Target: Max dimerization protein 1, bHLH-zipper, MAX partner unstated (MXD1, Homo sapiens, UniProt Q05195, residues 56-136)
# Notes: k-mer, scored over probes, only values ≥0.25
# Construct (chain): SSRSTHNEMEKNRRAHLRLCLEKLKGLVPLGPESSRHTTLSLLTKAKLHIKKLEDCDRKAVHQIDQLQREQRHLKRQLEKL
Strand,E-score
CTGCATGC,0.305
CTCACCCC,0.311
CACGCGCG,0.387
AGCATGCC,0.354
ATGTGCTC,0.325
ACGGGGGG,0.321
ACATGTCA,0.254
CGTGGGGC,0.292
CATGCGCA,0.361
GTGGCAGA,0.293
AGGGCGTG,0.332
CCCCCACG,0.385
ACATGGCA,0.293
CCCATGCG,0.418
AGGCCACG,0.268
ACATGACT,0.312
CGTGGTAC,0.351
TGCATGCA,0.341
CCCCACAA,0.257
CCCTCCCG,0.266
CGCATGGC,0.415
CCCCCCGC,0.324
AACGTGGG,0.415

# Sample 2 — technique: aptamer microarray, sandwich; molecule type: DNA with 2'F-ANA; medium: in vitro; tested at: 200 nM; with: Cy3 exosite-II aptamer, 400 nM; direction: higher = stronger binding; strand: GGTTGGTGTGGTTGG
# Target: Prothrombin, mature alpha-thrombin (F2, Homo sapiens, UniProt P00734)
# Notes: whole 15-mer aptamer, many near background
Modification,mean fluorescence intensity [a.u.]
2'F-ANA at 5 6 7 8 10 14,45.3
2'F-ANA at 1 2 4 5 6 9 10 11,63
2'F-ANA at 1 2 3 8 9 10 13 14,88.1
2'F-ANA at 2 3 8 9 10 11 13 14 15,249
2'F-ANA at 2 3 4 7 8 9 11 13 15,441
2'F-ANA at 2 4 5 6 8 9 11 13,52
2'F-ANA at 3 4 11,670
2'F-ANA at 1 2 3 7 8 9 10 11 12 14,55.1
2'F-ANA at 1 3 4 7 9 11 13 14,64.6
2'F-ANA at 3 4 6 7 8 9 11 12 13 15,484
2'F-ANA at 2 7 14,193
2'F-ANA at 3 4 5 6 9 12 13 14,53.5
2'F-ANA at 2 3 4 5 6 12,202
2'F-ANA at 1 5 6 7 12,103
2'F-ANA at 1 9 15,259
2'F-ANA at 2 6 8 12 13 15,599
2'F-ANA at 2 3 4 5 6 7 8 9 10 11 12 13 14 15,65.3
2'F-ANA at 3 6 7 9 10 12 15,542
2'F-ANA at 2 3 5 6 7 8 10 13,50
2'F-ANA at 2 6 8 9 12 13 15,485
2'F-ANA at 2 3 9 10 12 13,440
2'F-ANA at 1 3 4 5 6 7 9 12 14 15,51.2
2'F-ANA at 1 4 8 9 11 13 15,80.7
2'F-ANA at 2 3 7 8 10 11 13 15,288

# Sample 3 — technique: RNA Bind-n-Seq; molecule type: RNA; medium: in vitro; tested at: 365 nM; relative to: no-protein control; direction: higher = stronger binding
# Target: RNA binding protein fox-1 homolog 2, RRM domain, GST-SBP tag (RBFOX2, Homo sapiens, UniProt O43251-10, residues 100-194)
# Notes: natural RNA segment, single round, ends assumed
# Shared flanks, not repeated: GGGAGUUCUACAGUCCGACGAUC … UGGAAUUCUCGGGUGCCAA
# Residues (chain): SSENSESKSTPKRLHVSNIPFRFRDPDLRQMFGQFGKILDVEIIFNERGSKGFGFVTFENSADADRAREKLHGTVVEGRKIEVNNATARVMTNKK
Strand,RBNS enrichment (R)
UGGAGAAGUAUUUAUUUUCAAAUAUCAAAUUGAAGAAAAACUCAAUCCUCCCAUGAAAAUCAGUUCGCCUGGCCUCCAAGUCGUGAGGAAAUGGGUAUGCAAGGCUGAGA,0.34
UAGUUGAAUGUUGAGGCUUUAACUUUUUCGGUGUCUUUCUACAGCUGUGUUCUGUGACUCAAUUGUAUCGUGUUACUCUCAGUACAGACCGUCUCCUCUACGUGACCGUA,0.357
CCUAGCCUCGUAGAGACCAAAGGCCGCCCCCGCCUGCUGGGGUUCCUCCCAGCACCCCAGCUUGCUGGCUGCCCUCUUUGCCUUCUGGCCUCCAGCUGGGUGUGGGGGGG,0.425
UUUGUGAGUGCUUGGAGUGUUCUUCCUAAUAAACACACUUCAUGUCUUGUGUUGUCUUUUUCACUCAGUCCUGACUUACACAUAGGGGUCCUGGAAGAACGGGAGUAUGA,0.533
UGACUUAUGUGGUAAAAUGUUUGAGAGUUUGCACUCAAUUUUAAAGAAUUUGCAGUUUCUAACAAGGUGAAGAACAGCUAUAGGAUCUAAAGUUCCAUUACAGCUUACUG,0.46
ACUGGGUGUUUAGUGCUAAACAGCCAGAACCACAGAGACAGUAUUGUAUGACCAAAGCAUUUGAUGCCAAAAUUUGACGUUAAAGUAAUGAUUUGAUUUCCUGCCCUGGU,0.31
CGUGGGAUUGCUUCCACCAGUGUGUUUCUGAGACUUCUCCUUAUCUUCCAGGCCAAAGUAUGUUGCUGCUUCCUGUCUCCACUGGUCCCCACCUACCCUGGCACUUGCCC,0.48
GUUGAGGGUUCUUGCUUAAUUUAGAUCAAGUAUAAAAUUUGUAUGACUUCAAGUCUCAUUUUAUCUGAAAGGUUUUUUUCUCAUUUAAUCUGAUGUGGCAUUUUCGUCAU,0.493

# Sample 4 — technique: competition protein-binding microarray; molecule type: double-stranded DNA, one strand shown; medium: in vitro; tested at: 2 µM; with: Pho4 competitor, 0.05 µM; direction: higher = stronger binding; shared flanks, not repeated: … GTCTTGATTCGCTTGACGCTGCTG
# Target: Centromere-binding protein 1, full length, His-tagged (CBF1, Saccharomyces cerevisiae, UniProt P17106, residues 1-351)
# Chain of UniProt P17106 (whole entry, looked up): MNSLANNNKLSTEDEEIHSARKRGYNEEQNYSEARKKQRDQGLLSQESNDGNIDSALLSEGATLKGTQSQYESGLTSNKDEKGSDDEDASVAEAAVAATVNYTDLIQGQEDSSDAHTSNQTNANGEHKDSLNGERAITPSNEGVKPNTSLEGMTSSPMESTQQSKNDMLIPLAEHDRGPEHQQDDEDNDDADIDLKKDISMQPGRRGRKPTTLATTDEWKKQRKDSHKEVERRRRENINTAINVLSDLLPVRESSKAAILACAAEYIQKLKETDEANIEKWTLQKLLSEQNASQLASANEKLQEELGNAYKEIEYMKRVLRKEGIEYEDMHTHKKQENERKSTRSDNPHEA
# Notes: whole 60-bp probe, lowest competitor level
Strand,fluorescence intensity
TGTCGAGGTATCGGCCGCGTGGAACTACCGGGAATT,78.3 a.u.
TCTTACTGCCCTTATAATGTGACGCCAACTTTAGCG,84.3 a.u.
CTAACGAAGGTTTGTGTCGTGGGTGACAAGCCAAGT,77.1 a.u.
AAGCCACAAACTTTTTGCATGACAGTCATTGTGTAC,106 a.u.
AAAGCGGTAATTTGCGGGGTGGGTGCAGATATCTAT,77.5 a.u.
CTGGAGGGCGTAACGGCCGTGATGGGGCCTGAGCTC,46.6 a.u.
AACTCCTGTGGCAACTTCGTGATGGTGTTGATCTCC,63.2 a.u.
CTTCTGTAAATTTTTCACGTGGCGTGAAGCGCCCCG,683 a.u.
GACAAAAAAGCAGGGCACATGTCAAACTCTTGGAAA,192 a.u.
CATTAAGTGCTTCCTCACGTGCCGATCTACTTCTCT,1270 a.u.
AACAACACCAGCACCTTCGTGACGGCCGATTAATGG,69 a.u.
GTCTTGTCTCATTGCCTGGTGGGTGTCCCCACTTCA,61.5 a.u.
AAAGCGGTAATTTGTTCCGTGGGTGCAGATATCTAT,71.8 a.u.
ATATTAAAAAACCATCACGTGGTGAAAAAAAAAATT,7640 a.u.
CTTTCCCGATCTTGTTAAGTGGGTGTAGCACATTTG,78.9 a.u.
TGGCGTTCGACGACTCATGTGTGTTAGATTGGGACA,75.4 a.u.
AACGGGTTTCGAGATCTCGTGAGGATGGTTTTGGAA,169 a.u.
AACATCATAAATTAGCACGCAAACGGTAAAGAACAA,86.3 a.u.

# Repeated from above (sample 1):
Strand,E-score
GTGGCAGA,0.293
AGGGCGTG,0.332
CCCCCACG,0.385
ACATGGCA,0.293
CCCATGCG,0.418
AGGCCACG,0.268
